# Results of several laboratories.
# Numbered parts are unrelated; each lists some results of a single study.

# Sample 1
# Target: Fragile X messenger ribonucleoprotein 1, C-terminal low-complexity region (Fmr1, Mus musculus, UniProt P35922)
# Technique: RNA Bind-n-Seq
# Form: RNA
# Matrix: in vitro
# Tested at: 200 nM
# Notes: whole 134-nt RNA, ends assumed
# With: 150 mM LiCl
# Reference: input library
# Direction: higher = stronger binding
# All molecules: 7-deaza-guanosine replaces G
# Shared flanks, not repeated: GGGAGUUCUACAGUCCGACGAUC … UGGAAUUCUCGGGUGUCAAGG
Oligonucleotide,log2 enrichment
GAAACUACCCGUGUGUAAAAAGAAGAUUGGCUUAAAAUGGCUACUGUGAUGGGAACAGUGUCUUAGGGAGAUGCAGCUUGGACUUGAGGU,1.18
UCCUCAAGUCCUGUGCUACACAUCGUAUGUACCGAAUCGGGGCGGCGGGCGGAAAGUAUUAUGUUACGCCGUUCGGAUCUGCACUUCCAG,-0.0798
UGGGAGGCGGAUUUUGUUUAUUUUUUUAGCUCAUUUCCAGGGGUGGGAAUUUUUUUUUAAUAUGUGUCAUGAAUAAAGUUGUUUUUGAAA,1.03
UUGAACAUCUGCAGGAAAAGAGGCGAGAGGGCACUUUGAGAGUGGAUACCUACACUCUAGUGCAGCCUGAGGCAGAAGACCAUGUUGAGA,-1.54
GCAGGAAGUAAAAACAAAUGGAAAUGCUUCGGAUAGUCGCAGGGGUGGGGGUUGCUAAGGAAAGGGUGGGAUGGGAGUGGGUAAAGAGUU,1.4
AGUCCUGUGCUACACAUCGUAUGUACCGAAUCGGGGUUUUGGGGUUUUGGUUUUGGGAAAGUAUUAUGUUACGCCGUUCGGAUCUGCACU,-2.35
AGUCCUGUGCUACACAUCGUAUGUACCGAAUCAAAUUUAAAUUUUUUUAAACCCAAAAAAGUAUUAUGUUACGCCGUUCGGAUCUGCACU,-1.54
UGGGAGGUGGAUUUUGUUUAUUUUUUUAGCUCAUUUCCAGGGGUGGGAAUUUUUUUUUAAUAUGUGUCAUGAAUAAAGUUGUUUUUGCAA,0.994
UCAAGUCCUGUGCUACACAUCGUAUGUACCGAAUCGGGUUUGGGAGGGUUUGGGAAAGUAUUAUGUUACGCCGUUCGGAUCUGCACUUCC,-0.624
GUCCUGUGCUACACAUCGUAUGUACCGAAUCGGAAAAAAGGGGAAAAAAGGAAAAAAGGAAAGUAUUAUGUUACGCCGUUCGGAUCUGCA,0.0986
UUCCCCUGGAGGGCGCCUCCAUCCUUGGAGGCCUAGUGCCGUCGGAGAGAGAGCGGGAGCCGCGGACAGAGACGCGUGCGCAAUUCGGAG,-1.17

# Sample 2
# Target: RNA binding protein fox-1 homolog 2, RRM domain, GST-SBP tag (RBFOX2, Homo sapiens, UniProt O43251-10, residues 100-194)
# Technique: RNA Bind-n-Seq
# Form: RNA
# Matrix: in vitro
# Tested at: 365 nM
# Notes: natural RNA segment, single round, ends assumed
# Reference: no-protein control
# Direction: higher = stronger binding
# Shared flanks, not repeated: GGGAGUUCUACAGUCCGACGAUC … UGGAAUUCUCGGGUGCCAA
# Residues (chain): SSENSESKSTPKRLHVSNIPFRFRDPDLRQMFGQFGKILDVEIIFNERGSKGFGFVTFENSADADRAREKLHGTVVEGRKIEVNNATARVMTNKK
Oligonucleotide,RBNS enrichment (R)
CUGUUGAGUAUGGAAUGUCCCAGUUUAAUAUAAAACAUACAGUUUAUUCCACACAGCAGUUUGACUUUGUAAAAGUUUAGCAAAAUAACUGAUUGUUUUGGAUAACUCAA,0.428
CGCUCAUGCGUACAACAGGGUAUGGACUAUCUGUAUGGUGCCCCAUUUUUGGCGGCCCGUAAGUAGGCUGGCUAGUCCAGGAUACUGUGGAAUAGCCACCUCUUGACCAG,0.183
AUGAACAUGGACUUAAAUGUUCUUUGAAAAAACCAAAGUUUUAAGAUUUGCUGUGUGAUGAAGUGACAGGGAGGGCCGGAGUCAGCAGGUGCCAGACUUUCUGUUCUGUC,0.568
AAGGUGCCAUCGCAGGGUCAGGCCUGCCCUGUCCCGAAGUGAUCUCCUGGAAGACAAGUGCCUUCUCCCUCCAUGGAUCUGUGAUCUUCCCAGCUCUGCAUCAACACAGC,0.192
AGGGGCCUGCCAGAAAAGUCACUAACCUGUCUCAGUGUGGCCUUGUCCAGCCUUGUGUUUUCUGUAACCCCUGUUUGUGGUACGAGAUAAUGAGUCCUAUUUUUCUCUCA,0.281
CUACUAUAACAUAGGCAUAAAUAUUUUCGUGUUUAUAUGCAUAUACAAGUUAAAAUAAUUAGAAACUAUGACUGCGCCUAGUAAAGUCAUCUAGGUUUAUAGUUCAGUAG,0.515
UAAGGACACGGGCCCCCUUCCGUCCUCGGGCUCCCGGUCCCCUCCUAUUUAUGGGGUCUGACCAACUGCACCCACUCCCUAAUAAAUUCAUUCUCCUUGGGAGCCUCCUU,0.575
UUUGUAUUAGAGAAGGCACUUUGAUUGUACAAUACUUCACAUUGCUUUUUUAAUGCAUAAAGGUUUGAAGAAAAAUCAGACUCUGCCCCCAUGGUGAGUUAGCAUGAUUC,3.15
AGUGAGAGUAUUUAUUUUUGGCAUGUUUGGCCCACCACACAGACUCUGUGUGUGUAUGUGUGUGUUUAUAUGUGUAUGUGUGUGACAGAAAAAUCUGUAGAGAAGAGGCA,5.77
CAACAUCACUGCCCUUGGACGAGACUCAGUGGAAGACACUUCCCCUCGGACCCGUUCCCAGGAGGUGCAGGGGCCCAGCAAUAAACGGCGAAAGGGGCCUUGGCUCUUGC,0.259
UAAGUGUGUAUAUGUAGUAACUAUUUACAGACCACGCAUCCUUAUACUGUGACUUCACCUAGAUCUUCUACCAAGCUGAAGACCCUGCUGGCUCUGAAACAAUCCUUGCA,3.17
UAGGACUUUUAAACUUUAGAUCAAAAGAUAUGGUCCUUUUUAACUUUAUUUUUAAGGAGCAGACUUUAAAAUGAGCCCUGACCUUUACCCAUUAUAACAGAAUUUGUCAA,0.483

# Sample 3
# Target: Sal-like protein 4, full length isoform A (SALL4, Homo sapiens, UniProt Q9UJQ4, residues 1-1053)
# Sequence of UniProt Q9UJQ4 (whole entry, looked up): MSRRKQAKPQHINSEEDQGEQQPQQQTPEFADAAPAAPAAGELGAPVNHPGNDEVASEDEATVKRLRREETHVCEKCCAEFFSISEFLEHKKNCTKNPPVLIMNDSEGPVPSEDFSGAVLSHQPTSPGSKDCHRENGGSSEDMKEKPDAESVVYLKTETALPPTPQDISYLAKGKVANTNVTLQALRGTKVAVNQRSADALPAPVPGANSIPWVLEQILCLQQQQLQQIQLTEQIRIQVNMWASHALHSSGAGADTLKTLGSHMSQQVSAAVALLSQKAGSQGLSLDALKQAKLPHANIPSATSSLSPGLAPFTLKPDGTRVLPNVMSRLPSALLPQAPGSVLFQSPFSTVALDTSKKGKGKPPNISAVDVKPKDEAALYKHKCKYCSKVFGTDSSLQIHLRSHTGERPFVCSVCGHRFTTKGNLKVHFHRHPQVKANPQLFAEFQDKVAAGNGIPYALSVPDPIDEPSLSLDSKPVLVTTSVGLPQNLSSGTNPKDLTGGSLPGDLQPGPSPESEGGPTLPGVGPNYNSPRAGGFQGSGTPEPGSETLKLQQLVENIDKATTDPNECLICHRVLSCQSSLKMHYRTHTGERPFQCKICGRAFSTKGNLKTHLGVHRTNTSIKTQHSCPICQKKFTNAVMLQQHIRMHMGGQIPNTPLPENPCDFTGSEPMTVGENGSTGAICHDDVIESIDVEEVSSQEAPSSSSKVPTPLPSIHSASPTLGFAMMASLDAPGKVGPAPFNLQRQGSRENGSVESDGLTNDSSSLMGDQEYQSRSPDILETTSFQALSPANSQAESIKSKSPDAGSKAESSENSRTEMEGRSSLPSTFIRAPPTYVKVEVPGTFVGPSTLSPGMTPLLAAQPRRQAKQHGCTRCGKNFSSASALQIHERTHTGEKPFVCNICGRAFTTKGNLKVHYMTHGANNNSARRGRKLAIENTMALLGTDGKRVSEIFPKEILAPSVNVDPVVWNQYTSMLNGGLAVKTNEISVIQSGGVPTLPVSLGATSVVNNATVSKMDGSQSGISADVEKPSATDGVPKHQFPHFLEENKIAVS
# Technique: universal PBM
# Form: double-stranded DNA, one strand shown
# Matrix: in vitro
# Tested at: 600 nM
# Notes: 8-mer, flanks averaged, mean of replicates
# Direction: higher = stronger binding
Oligonucleotide,E-score
ATCGGAAT,0.156
GTGCAGTA,-0.0476
CCTGGTGC,-0.229
CGTTAGCA,0.0887
CTGTCGTC,-0.0737
AAGAACAC,-0.00407
AAACTTGA,0.108
GTCACTCA,-0.0898
CCTCTTGA,0.0469
CCAGAGCA,-0.0902
GCAAACCA,0.0962
CCCGTCGG,-0.372
GCCCCTCC,-0.284
AATTGCAC,0.0746
ATCAGTGA,0.0156
AATCTTAA,0.214

# Sample 4
# Target: Histone acetyltransferase KAT6A, winged helix 2, GST fusion (KAT6A, Homo sapiens, UniProt Q92794, residues 85-181)
# Technique: protein binding microarray
# Form: double-stranded DNA, one strand shown
# Matrix: in vitro
# Tested at: not given
# Notes: 8-mer, flanks averaged, mean of 2 arrays, mostly near background
# Reference: not given
# Direction: higher = stronger binding
# Residues (chain): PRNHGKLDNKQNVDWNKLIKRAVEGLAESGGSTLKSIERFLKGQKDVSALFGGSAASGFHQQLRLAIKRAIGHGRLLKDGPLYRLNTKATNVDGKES
Oligonucleotide,E-score
GGAACTCA,-0.129
AGCAAGCC,0.0691
CCCTACGC,-0.0445
GATTATAC,0.0193
GTGAGATA,-0.0288
CCAATCAC,-0.084
CACCGCAA,0.261
ACGAACCC,0.0839
ACCGATCC,-0.0492
AGCTGCAA,-0.0734
CTACCTTC,-0.017
CAGTAATC,-0.0289
CTGATCCA,0.0227
CTCGCAGC,0.159
AACATGAT,-0.0508
ACTTTCGA,-0.0765
GATAATAA,-0.0284
ACACTTCG,-0.0454
GCTTCGGA,0.00108
ACCTATCT,-0.225
ACCGCGCG,0.164
CCTTGACA,-0.0357
CAACACTC,0.0943
AGGAGACT,-0.107
CCATCGAC,0.0721

# Sample 5
# Target: RING finger protein unkempt homolog, zinc fingers 1-6, GST-SBP tag (UNK, Homo sapiens, UniProt Q9C0B0, residues 30-357)
# Technique: RNA Bind-n-Seq
# Form: RNA
# Matrix: in vitro
# Tested at: not given
# Notes: RNA with constant flanks, human and mouse sites, ends assumed
# Reference: input RNA pool
# Direction: higher = stronger binding
# Shared flanks, not repeated: GGGAGUUCUACAGUCCGACGAUC … CAACAGAGGAUUGAGCAUCA
# Target sequence (chain): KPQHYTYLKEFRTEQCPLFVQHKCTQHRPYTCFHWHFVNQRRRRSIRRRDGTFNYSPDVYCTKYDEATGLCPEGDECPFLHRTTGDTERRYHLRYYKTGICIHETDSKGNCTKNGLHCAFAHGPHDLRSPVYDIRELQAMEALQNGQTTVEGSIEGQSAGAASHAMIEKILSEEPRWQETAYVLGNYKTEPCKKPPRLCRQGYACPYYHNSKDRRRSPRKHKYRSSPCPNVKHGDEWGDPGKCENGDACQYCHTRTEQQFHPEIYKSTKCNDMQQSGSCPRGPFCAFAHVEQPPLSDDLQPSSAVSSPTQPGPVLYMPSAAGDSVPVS
Oligonucleotide,bound/input enrichment
UUUAACCAUGUGUCUACAAGAAUAAGUUUGUUUUGGAAAGUUGAGCUAUAGCUACAGCUCUAGCUAUCCAGCAGACUUUUCAUUAUGACUUACAUGGCAGGAGCUCUAAUUAUGCUUUAA,0.152 ratio
CUCGAUGAGUUAGAAGAUUUUACUGACAAUUUGGAGCUAGAUGAAGAAGGAGCAGGCGGGUUCACGGCUAAAGCAAUCGUUCAGAGAGACAGAGUGGAUGAAGAGGCCUUGAAUUUCCCC,0.457 ratio
ACAUGUUCCCAGCUGAGAGACUAUAUCACUCUUGGAGCGGAGGCCUUCUUAUUGAGGCUCUACAGGAAAACCUUUGAGAAGGAUAGCAAAGCUGAAGAAGUCUGGAUGAAAUUUAGGAAG,0.897 ratio
CCCAGUCCCCAUUACUUAUUUGCACACUUGUUUUAACUGACUUCCUGUUUUGAUAUUUAUCACCAAGACCAUAAACUCAUCAAUAUGAAUUUUCUUGAUGUAUACUCACGACUGUCUUUG,0.602 ratio
UAUCAUGCCUUUUCUCUAGUUUCUCUUUCAGGAUGGAAAGAAUAUUUUAAAAACAACAUUUUAGGACUUAAACAUUUGAUUUCGGUACCAGAUGAAUUGCUAACCUGUUACUGAUAAUUU,7.47 ratio
AAUGUUAAACUUAAAGCUCAGACAUAUGAACUCCAGGAAAGUAAUGUUCAAUUGAAAUUGACCAUUGUGAAUACAGUGGGAUUUGGUGACCAAAUAAAUAAAGAAGAGAGCUACCAACCA,0.082 ratio
UGAAAAAGCCUUGAAUAUGCAUGCUGCUUUCAUUUUUAUAAACUUUUUAUUUUUUAACUAUAGCUUUAUUAGUAAUUCCAAAAUGCUGCAAUGUAGCUGAUUUCCUCACUCAGACAGCUG,56.3 ratio
ACUUCUCCAUCCUGGACGAGGCGCAAGUGCUGGCGAGCCAGAUGCGGAGGCUGGCUGCCGAGGAGCUGGGGGUGGUCACCAUGCAGAGGAUCUUCAAUUCGUUGGUUUACACAGAGAAGA,0.0753 ratio
GAUUUUAAUUGGCAGGGGAUAAUGGUAGCUUUCAAAUCAUUGGAAGGGGAAAAGGAUGUCUUAGGAUUAUUUUCUUUCUUGUAGUAGUUGAGACAGAGCUCUUAUUUACUGUAAUGCUAA,0.419 ratio
GUCCAAACACAAUGUGACUGUUGUUUUUUAUACUGGCAUCGAGCUGUCUUCCCAAUUUAUUUAGAUGAUGUAUAUGAAAAUGCUGUUGAUGCAGCCAGAUUACAUUACAUGUUCAGUGCU,5.08 ratio
AAAACCUGGUAUGGAGUUCCAGGCUACGCUGCUGAGCAGCUAGAAAACGUGAUGAAGAAGCUCGCUCCUGAGCUCUUUGUGUCCCAGCCGGACCUGCUCCACCAGCUGGUGACCAUCAUG,0.132 ratio
